Assay results of several laboratories.
Lines come from different studies, so protocols differ. pIC50: −log10 of the molar value.

With `COc1ncccc1-c1cnn2ccc(N3CCN(C(=O)OC(C)C)CC3)nc12` the pIC50 was 4.96 (PDE3; inhibitor).
`CC(=O)C1C(=O)c2ccccc2C1=O`: activity “inactive” (FXR; HEK293 cells; concentration not given).
`CCOC(=O)c1ccc(OC(=O)CCCCCN=C(N)N)cc1` gave a pIC50 of 8.05 (trypsin; enzyme activity, inhibitor).
With `N[C@@H]1C[C@H]1c1ccccc1` (racemic) the trans-stimulation ratio was 0.3 (human H+/organic cation antiporter; hCMEC/D3; 250 µM, 2 min, added: 1 µM DPH preloading 30 min; baseline: control).
`CN(C)C(=O)c1cc2cnc(Nc3ccc(C(=O)NCCCCCCOc4cccc5c4C(=O)N(C4CCC(=O)NC4=O)C5=O)cc3)nc2n1C1CCCC1` (stereo not shown) gave a DC50 of 179 nM (N-Myc (human); degrader, immunoblotting, measured: N-Myc; SK-N-BE(2); 4 h).
`O=C(Nc1cccnn1)N1CCN([C@@H]2CCOc3cc(C(F)(F)F)ccc32)CC1` gave an inhibition of -1% (SKCa potassium channel; binding; 20 µM).
`COc1nc(NC(C)C)nc(NC(C)C)n1` has an Emax of 65.5% (FXR; Shp mRNA induction, agonist, qPCR, measured: Shp; Oryzias latipes, larvae; 10 µM, 48 h; baseline: maximal induction by reference agonist).
`c1ccc(C(NCCNC(c2ccccc2)c2ccccc2)c2ccccc2)cc1` has an inhibition of 20% (SKCa potassium channel, rat; binding; 10 µM, Eurofins selectivity panel).
The remaining binding of `Nc1ncc(-c2nc(N3CCOCC3)nc(N3CCOCC3)n2)c(C(F)F)n1` is reported as 77% (FLT3 ITD; KINOMEscan; 10 µM; baseline: control).
`O=C1C[C@@H](c2ccc(O)cc2)Oc2cc(O)cc(O)c21`: BChE activity “no effect” (butyrylcholinesterase; rat liver microsomes; concentration not given, added: NADPH).
For `CN1CCN(c2ccc(Nc3nccc(-c4ccccc4)n3)cc2C(F)(F)F)CC1`, the remaining binding was 0.65% (human FLT3 ITD; 10000 nM; baseline: control).
For `NCCc1ccccc1`, the ΔTm was 4.66 °C (SAR11_0271 Candidatus Pelagibacter sp.; differential scanning fluorimetry; concentration not given; higher = stronger binding).
`C[C@H](C(=O)N[C@H]1COc2ccccc2[C@@H]1S(C)(=O)=O)c1ccc(F)cc1` gave an inhibition of -4% (AMPA receptor, rat; binding; 10 µM, Eurofins selectivity panel).
With `C[N+](C)(C)CCOP(=O)(O)O` the thermal shift was 3.57 °C (SAR11_1346; differential scanning fluorimetry; Candidatus Pelagibacter sp.; in-house screen).
For `CC(C)[C@@H](CN1CC[C@@](C)(c2cccc(O)c2)[C@@H](C)C1)NC(=O)[C@@]1(C)Cc2ccc(O)cc2CN1`, “reversal of U-50488 diuresis” read -24% (kappa opioid receptor; antagonist; Long-Evans rat; subcutaneous, 30 mg/kg, 1 week after dosing, added: U-50488; baseline: U-50488 alone).
`Oc1cccc(N2[C@@H]3CC[C@H]2CN(CCCc2ccccc2)C3)c1` has an Emax of 63.3% (mu opioid receptor; Gi1 activation, agonist, TRUPATH BRET; baseline: DAMGO).
With `NCC(O)c1ccc(O)cc1` (racemic) the ΔTm was 3.68 °C (SAR11_0271 Candidatus Pelagibacter sp.; differential scanning fluorimetry; concentration not given; higher = stronger binding).
`CC(C)CC(=O)OC[C@H]1O[C@@](C#N)(c2ccc3c(N)ncnn23)[C@H](O)[C@@H]1O` has an inhibition of 7% (sodium channel site 2 rat; radioligand binding; 20 µM).
`COc1cc(Nc2ncc(F)c(Nc3ccc4c(n3)NC(=O)C(C)(C)O4)n2)cc(OC)c1OC` has a pIC50 of less than 5.00 (Trypsin).

For quick reference, copied from above:
`c1ccc(C(NCCNC(c2ccccc2)c2ccccc2)c2ccccc2)cc1` has an inhibition of 20% (SKCa potassium channel, rat; binding; 10 µM, Eurofins selectivity panel).
The remaining binding of `Nc1ncc(-c2nc(N3CCOCC3)nc(N3CCOCC3)n2)c(C(F)F)n1` is reported as 77% (FLT3 ITD; KINOMEscan; 10 µM; baseline: control).
`O=C1C[C@@H](c2ccc(O)cc2)Oc2cc(O)cc(O)c21`: BChE activity “no effect” (butyrylcholinesterase; rat liver microsomes; concentration not given, added: NADPH).
